{"data": "Assay results pooled from the literature", "note": "Lines come from different studies, so protocols differ. Several values in a cell are separate wells, animals, samples, runs or records."}
{"Compound": "C=CCN1CCC23c4c5ccc(OC(=O)c6ccc(N)cc6)c4OC2C(=O)CCC3(O)C1C5 (stereo not shown)", "system": "human plasma", "setting": "0 h", "measurement": "remaining compound", "result": "104% and 100% and 95.9%"}
{"Compound": "Cc1cc(-c2ccc3ccccc3c2)nnc1NCCN1CCN(C)CC1", "system": "rat liver microsomes", "setting": "10 min", "measurement": "remaining compound", "result": "88%"}
{"Compound": "Cc1nnc(-c2ccc(CC(=O)NCCCC[C@H](NC(=O)c3ccc(OCc4ccc(B(O)O)cc4)c(-c4nc5ccccc5c(=O)[nH]4)c3)C(=O)NCC(=O)NCC(=O)NCC(=O)N[C@@H](Cc3ccccc3)C(=O)N[C@@H](Cc3ccccc3)C(=O)O)cc2)nn1", "assay": "UPLC-MS/MS", "system": "human serum", "setting": "100 µM, 1 h, 37 °C", "measurement": "remaining compound", "result": "86.7%"}
{"Compound": "C=CCN1CCC23c4c5ccc(OC(=O)c6ccc(NC(=O)OC(C)(C)C)cc6)c4OC2C(=O)CCC3(O)C1C5 (stereo not shown)", "system": "rat plasma", "setting": "1 h, no inhibitor", "measurement": "remaining compound", "result": "0%"}
{"Compound": "CC(C)[C@@H]1NC(=O)CNC(=O)[C@H](CC(N)=O)NC(=O)[C@H](CCCNC(=N)N)NC(=O)[C@H](Cc2ccc(O)cc2)NC(=O)[C@H](C(C)C)NC(=O)[C@@H](NC(=O)[C@@H](NC(=O)[C@H](CC(N)=O)NC(=O)[C@H](Cc2c[nH]c3ccccc23)NC(=O)[C@H](C)NC(=O)[C@H](Cc2ccccc2)NC(=O)CNC(=O)[C@H](CCCCN)NC(=O)[C@H](Cc2ccccc2)NC(=O)[C@H](Cc2ccccc2)NC(=O)[C@H](CCCCN)NC(=O)OCC2c3ccccc3-c3ccccc32)C(C)C)CSSC[C@@H](C(=O)N[C@@H](Cc2c[nH]cn2)C(=O)N[C@@H](CCCNC(=N)N)C(=O)N[C@@H](CCCNC(=N)N)C(=O)N[C@@H](C)C(=O)N[C@@H](CC(N)=O)C(N)=O)NC(=O)[C@H](C(C)C)NC(=O)[C@H](CCCNC(=N)N)NC1=O", "assay": "HPLC", "system": "mouse mammary gland homogenate", "setting": "2560 µM, 4.00 h, 37 °C, 50 mg/mL tissue", "measurement": "remaining peptide", "result": "81.1% and 74.9% and 79.7%"}
{"Compound": "CC[C@H](C)[C@H](NC(=O)[C@H](CCC(N)=O)NC(=O)[C@@H](NC(=O)[C@@H]1CCCN1[C@@H]1CN(C(=O)[C@H](CCCCN)NC(=O)[C@H](CC(N)=O)NC(=O)[C@@H](NC(=O)[C@@H](NC(=O)[C@H](CCC(N)=O)NC(=O)[C@@H](N)C(C)C)[C@@H](C)CC)[C@@H](C)CC)CC[C@H]1NS(=O)(=O)c1ccc(C)cc1)C(C)C)C(=O)N[C@H](C(=O)N[C@@H](Cc1ccc(O)cc1)C(=O)N[C@@H](CCCCN)C(N)=O)C(C)C", "assay": "LC-MS", "system": "pronase digest", "setting": "200 µM, 10 min, pH 7.5, 37 °C, together with: pronase 2.5 µg/mL", "measurement": "remaining intact peptide", "result": "87%"}
{"Compound": "C#Cc1c(F)ccc2cc(O)cc(-c3ncc4c(N5CC6CCC(C5)N6C(=O)OC(OC(=O)CCC)C5CCCCC5)nc(OC[C@@]56CCCN5C[C@H](F)C6)nc4c3F)c12 (stereo partly shown)", "system": "simulated gastric fluid", "setting": "1 µM, 30 min, 37 °C", "measurement": "remaining prodrug", "result": "103%"}
{"Compound": "CCCCCCCCCCCC(=O)C(C)C(=O)N1CCC[C@H]1C(=O)NC(C)(C)C(=O)NC(C)(C)C(=O)NC(C)(C)C(=O)N[C@](C)(CC)C(=O)NCCC(=O)N[C@@H](C)C(=O)N[C@](C)(CC)C(=O)N[C@@H](C)C(=O)N[C@@H](CC(C)C)C(=O)N[C@](C)(CC)C(=O)NCCC(=O)N[C@@H](C)C(=O)N[C@](C)(CC)C(=O)NCCC(=O)N[C@@H](C)C(=O)NC(C)(C)C(=O)NC(C)(C)C(=O)NC(C)(C)C(=O)N[C@@H](C)C(=O)N[C@@H](CC(=O)O)C(=O)O (stereo partly shown)", "assay": "LC-MS", "system": "50% pooled human serum", "setting": "40 µM, 540 min, pH 7.5, 37 °C", "how to read": "relative to: 0 h", "measurement": "remaining intact peptide", "result": "31.2% and 27.1% and 32.8%"}
{"Compound": "C=CCN1CCC23c4c5ccc(OC(=O)c6ccccc6)c4OC2C(=O)CCC3(O)C1C5 (stereo not shown)", "system": "human plasma", "setting": "24 h", "measurement": "remaining compound", "result": "3.2% and 2.9%"}
{"Compound": "C#Cc1c(F)ccc2cc(O)cc(-c3ncc4c(N5CC6CCC(C5)N6C(=O)OC(OC(=O)CCC)C(C)C)nc(OC[C@@]56CCCN5C[C@H](F)C6)nc4c3F)c12 (stereo partly shown)", "system": "simulated gastric fluid", "setting": "1 µM, 30 min, 37 °C", "measurement": "remaining prodrug", "result": "95.6%"}
